Experimental data collected from several papers.
Compare with care: the assays were run in different laboratories. “And” joins repeats or separate records; there may be more than shown. Numbers after ± are the reported error. Converted amounts (≈) assume the structure as drawn.

SMILES	test	test system	setting	scale	measurement	result
Cc1nc(N)nc2c1C(=O)N[C@@H](c1ccc(F)cc1-c1cccc(O[11CH3])n1)C2	radioligand, ex vivo biodistribution	mouse, MDA-MB-231 xenograft, white blood cells	60 min p.i.	–	SUV	3.3 ± 0.6
C/C(N)=N/C(=N\S(=O)(=O)c1ccc(C(F)(F)F)cc1)N1C[C@H](c2ccccc2)C(c2ccc(Cl)cc2)=N1	–	Beagle dog, plasma	oral, 18 mg/kg	–	oral bioavailability	30.4%
CC(C)(O)c1ncc([S@](N)(=O)=NC(=O)Nc2c3c(cc4c2CCC4)CCC3)s1	measured: skin, subcutaneous tissue disorders	healthy human	oral, dose not given, all active doses pooled	–	subjects with TEAEs	2%
N[C@@H](CC(=O)O)C(=O)OC(C(=O)O)c1ccc(Br)cc1[N+](=O)[O-] (mixture of isomers)	1H NMR, dark	50 mM sodium phosphate	concentration not given, pH 5.8, room temperature, 12.5% DMSO-d6	–	hydrolysis half-life, A isomer	10.3 ± 0.4 h
CCCCN1C(=O)c2cccc3c(NCCCCCCCCN4CCOCC4)ccc(c23)C1=O	–	toluene	–	–	fluorescence quantum yield	0.98
CC(=O)N([O-])CCCCCNC(=O)CCC(=O)N([O-])CCCCCNC(=O)CCC(=O)N([O-])CCCCCN.[89Zr+4]	–	PBS	1 days, pH 7, 37 °C	–	intact compound	98 ± 0.6%
CN1CCC[C@]1(C)/C=C/S(=O)(=O)NC(=O)Nc1c2c(cc3c1CCC3)CC=C2	–	human, plasma	oral, 100 mg twice daily of parent drug, day 1, metabolite of dosed drug	–	AUC(0-24)	697000 ng·h/mL
CN(CCNCc1ccncc1O)CCNCc1ccncc1O	potentiometric titration	aqueous KCl solution	1 mM, 25 °C, 0.1 M KCl	–	protonation constant logK3H	6.8
O=S1(=O)CC2CCCCC2CS1 (stereo not drawn)	phase solubility, NMR	water	25 °C, added: hydroxypropyl-β-cyclodextrin 311 mM	–	solubility	35.1 mM (≈ 7240 µg/mL)
CCc1cnc(NC(=O)c2cc(S(=O)(=O)N3CCOCC3)ccc2N(C)C2CCCC2)s1	–	mouse	10 mg/kg, 3 doses	–	haemoglobin	14.4 g/dL
CC(C)C[C@H](NC(=O)[C@H](CCCN)NC(=O)CNC(=O)[C@@H](NC(=O)[C@H](C)NC(=O)[C@@H]1CSCSC[C@H](NC(=O)CC[C@H](N)C(=O)O)C(=O)N[C@@H](CC(N)=O)C(=O)N[C@@H]([C@@H](C)O)C(=O)N[C@@H](C)C(=O)N[C@@H]([C@@H](C)O)C(=O)N1)[C@@H](C)O)C(=O)N[C@@H](C)C(=O)N[C@@H](CCC(=O)O)C(=O)N[C@@](C)(Cc1ccccc1)C(=O)N[C@@H](CC(C)C)C(=O)N[C@H](C(=O)N[C@@H](CCCNC(=N)N)C(=O)N[C@@H](CO)C(=O)N[C@@H](CO)C(=O)N[C@@H](CC(N)=O)C(=O)N(C)[C@@H](CC(N)=O)C(=O)N[C@@H](Cc1ccccc1)C(=O)NCC(=O)N1CCC[C@H]1C(=O)N[C@@H](CCCCNC(=O)CC[C@H](NC(=O)CC[C@H](NC(=O)CCCCCCCCCCCCCCCCCCC(=O)O)C(=O)O)C(=O)O)C(=O)N[C@@H](CC(C)C)C(=O)N1CCC[C@H]1C(=O)N1CCC[C@H]1C(=O)N[C@H](C(=O)N[C@@H](CCC(=O)O)C(=O)N[C@H](C(=O)NCC(=O)N[C@@H](CO)C(=O)N[C@@H](CC(N)=O)C(=O)N[C@H](C(=O)N[C@@H](Cc1ccc(O)cc1)C(N)=O)[C@@H](C)O)C(C)C)[C@@H](C)O)C(C)C	–	cynomolgus monkey, plasma	subcutaneous, 20 nmol/kg, single dose	–	Cmax	135 nM
CC(C)C[C@H](NC(=O)[C@@H](CCCCNC(=O)[C@@H](Cc1ccccc1)NC(=O)CCCCCCCNC(=O)CN1CCN(CC(=O)O)CCN(CC(=O)O)CCN(CC(=O)O)CC1)NC(=O)[C@H](Cc1ccc(O)cc1)NC(=O)[C@H](CO)NC(=O)[C@H](Cc1c[nH]c2ccccc12)NC(=O)[C@H](Cc1c[nH]cn1)NC(=O)[C@@H]1CCC(=O)N1)C(=O)N[C@@H](CCCNC(=N)N)C(=O)N1CCC[C@H]1C(=O)NCC(N)=O [indium-111 labelled]	biodistribution	male athymic nude mice, DU-145 prostate cancer xenograft, lung	intravenous, 0.037 MBq, 1 h post-injection	–	tissue uptake	0.58 ± 0.1 %ID/g
CN1CCC[C@]1(C)/C=C/S(=O)(=O)NC(=O)Nc1c2c(cc3c1CCC3O)CCC2 (stereo partly drawn)	–	human, plasma	oral, 12.5 mg twice daily of parent drug, metabolite of dosed drug	baseline: day 14 over day 1	AUC(0-24) accumulation ratio	1.5
CCC1=[N+]2N=C(c3ccccc3)C(=O)O[B-]2(c2ccccc2)Oc2cc(OC)ccc21 (stereo not drawn)	UV/vis decay	aqueous buffer	–	–	hydrolysis activation energy	22 kcal/mol
OCC1OC(n2cnc3c(NCc4ccc(Br)s4)ncnc32)C(O)C1O (stereo not drawn)	–	C57BL/6 mice, male, blood	oral, 3 mg/kg	–	Tmax	1 to 2 h
O=C([O-])CN1CCN(CC(=O)[O-])CCN(C(CO)C(O)CO)CCN(CC(=O)[O-])CC1.[Dy+3] (stereo not drawn)	–	cynomolgus monkey, kidney medulla	dose not given, day 5	–	lanthanide concentration	13 ± 3.8 nmol/g
CC(C)OCCOCc1ccc(OCC(O)CN(N=O)C(C)C)cc1 (stereo not drawn)	mutation spectrum, duplex sequencing	NMRI mouse, liver	concentration not given	–	T>A mutation fraction	increased
CC[C@H](C)[C@@H]1NC(=O)[C@H](Cc2ccc(O)cc2)NC(=O)CCCSC[C@@H](C(=O)N(CC(=O)N[C@@H](CC(C)C)C(=O)NCC(N)=O)Cc2ccc(F)cc2)NC(=O)[C@H](CC(N)=O)NC(=O)[C@H](CCC(N)=O)NC1=O	–	human, urine	intravenous, 20 µg	–	maximum undetected urinary excretion	≤ 0.1 µg
C[C@]12C[C@H](c3ccc(S(C)(=O)=O)cc3)C3=C4CCC(=O)C=C4CC[C@H]3[C@@H]1CC[C@@]2(O)C(F)(F)C(F)(F)F	measured: compound (parent)	healthy human volunteers, pooled plasma	oral, 5 mg daily, day 28, 312 h	–	plasma concentration	0.188 ng/mL
COC(=O)[C@@]1(C(C)C)C=C(C(=O)Nc2cccc(C(=O)Nc3ccc(Nc4nccc(-c5cccnc5)n4)c(C)c3)c2)C(=O)CC1	–	rat, plasma	10 µM, 5 min	–	compound remaining	101%
CN1CCC[C@]1(C)/C=C/S(=O)(=O)NC(=O)Nc1c2c(cc3c1C(O)CC3)CCC2 (stereo partly drawn)	–	human, plasma	oral, 12.5 mg twice daily of parent drug, day 1, metabolite of dosed drug	–	AUC(0-24)	38600 ng·h/mL
C=C(NC(=O)c1csc(-c2nc3c(cc2O)-c2nc(cs2)C(=O)NC(C(C)O)C(=O)NC(=C(C)OC)c2nc(cs2)C(=O)NC2c4nc(cs4)C(=O)NC(COC(=O)c4c5c6c(cccc6n4O)COC(=O)C(OC4CC(C)(O)C(N(C)C)C(C)O4)C2OC5)c2nc-3cs2)n1)C(N)=O (stereo not drawn)	–	female cynomolgus monkey, plasma	intravenous, 1 mg/kg, single dose, infusion	–	Cmax	11300 ng/mL
[123I]c1ccc2nc(-c3ccc(-n4ccnn4)nc3)cn2c1	–	male Wistar rat, muscle	intravenous, 4 MBq, 3 h	–	tracer uptake	0.019 %ID/g
C=CC(=O)Nc1cc(Nc2nccc(-c3cn(C)c4ccccc34)n2)c(OC)cc1N(C)CCNC	storage stability	human plasma	5 h, on ice, low QC level	–	recovery	98.8%
O=C(Nc1cnccc1-c1ccc([18F])nc1)c1ccnc(NC(=O)C2CC2)c1	–	FVB/NJ mice, both sexes, brain	intravenous, 5 min, median, no P-gp inhibitor	–	SUV	0.184
CN(C)C(=O)c1ccc(N2Cc3cn(Cc4ccc(F)cc4)nc3C2)cc1	metabolic stability	human, liver microsomes	–	–	half-life	0.6 h
COc1ccc2c(c1)CCn1c[n+]3c(c1-2)-c1ccc(OC)cc1CC3	–	female NSG mice, blood	6 mg/kg, day 7, 5 days per week	–	mean platelet volume	5.37 ± 0.12 fL
Cc1nn(-c2nc3c(F)cc(F)cc3s2)c(O)c1C(c1ccc(C(F)(F)F)cc1)c1c(C)nn(-c2nc3c(F)cc(F)cc3s2)c1O	–	ICR mouse, plasma	oral, 50 mg/kg	–	terminal half-life	5.96 h and 3.46 h and 2.79 h
CCN(CC)c1ccc2c(c1)O[B-]1(c3ccccc3OC)OC(=O)C(c3ccccc3)=N[N+]1=C2 (stereo not drawn)	UV/vis decay	aqueous buffer	–	–	hydrolysis activation energy	22.9 kcal/mol
CN1CCC[C@]1(C)/C=C/S(=O)(=O)NC(=O)Nc1c2c(cc3c1CC(O)C3)CCC2 (stereo partly drawn)	–	human, plasma	oral, 50 mg twice daily of parent drug, day 1, metabolite of dosed drug	–	AUC(0-24)	72600 ng·h/mL

Some of these lines once more:
SMILES	test	test system	setting	scale	measurement	result
CC(C)OCCOCc1ccc(OCC(O)CN(N=O)C(C)C)cc1 (stereo not drawn)	mutation spectrum, duplex sequencing	NMRI mouse, liver	concentration not given	–	T>A mutation fraction	increased
CN1CCC[C@]1(C)/C=C/S(=O)(=O)NC(=O)Nc1c2c(cc3c1CC(O)C3)CCC2 (stereo partly drawn)	–	human, plasma	oral, 50 mg twice daily of parent drug, day 1, metabolite of dosed drug	–	AUC(0-24)	72600 ng·h/mL
CC[C@H](C)[C@@H]1NC(=O)[C@H](Cc2ccc(O)cc2)NC(=O)CCCSC[C@@H](C(=O)N(CC(=O)N[C@@H](CC(C)C)C(=O)NCC(N)=O)Cc2ccc(F)cc2)NC(=O)[C@H](CC(N)=O)NC(=O)[C@H](CCC(N)=O)NC1=O	–	human, urine	intravenous, 20 µg	–	maximum undetected urinary excretion	≤ 0.1 µg
CC(C)C[C@H](NC(=O)[C@@H](CCCCNC(=O)[C@@H](Cc1ccccc1)NC(=O)CCCCCCCNC(=O)CN1CCN(CC(=O)O)CCN(CC(=O)O)CCN(CC(=O)O)CC1)NC(=O)[C@H](Cc1ccc(O)cc1)NC(=O)[C@H](CO)NC(=O)[C@H](Cc1c[nH]c2ccccc12)NC(=O)[C@H](Cc1c[nH]cn1)NC(=O)[C@@H]1CCC(=O)N1)C(=O)N[C@@H](CCCNC(=N)N)C(=O)N1CCC[C@H]1C(=O)NCC(N)=O [indium-111 labelled]	biodistribution	male athymic nude mice, DU-145 prostate cancer xenograft, lung	intravenous, 0.037 MBq, 1 h post-injection	–	tissue uptake	0.58 ± 0.1 %ID/g
